{"data": "Experimental data from different studies", "note": "Each line is one published result; not all experiments were run side by side. ± gives the spread as reported."}
{"Structure (SMILES)": "N=C(N)NCCC[C@@H]1NC(=O)[C@H](CCCCNC(=O)CNC(=O)CNC(=O)CNC(=O)c2ccc(NN=Cc3ccccc3S(=O)(=O)O)nc2)NC(=O)[C@@H](Cc2ccccc2)NC(=O)[C@H](CC(=O)O)NC(=O)CNC1=O [technetium-99m labelled]", "test system": "athymic nu/nu mouse, female, U-87 MG glioma xenograft", "conditions": "intravenous, 30 min", "scale": "baseline: tumour over liver", "measurement": "tumour to tissue ratio", "result": "1.95 ± 0.62"}
{"Structure (SMILES)": "N=C(N)NCCC[C@@H]1NC(=O)[C@H](CCCCNC(=O)CCOCCOCCOCCOCCNC(=O)CC[C@H](NC(=O)CCOCCOCCOCCOCCNC(=O)c2ccc(NN)nc2)C(=O)NCCOCCOCCOCCOCCC(=O)NCCCC[C@@H]2NC(=O)[C@@H](Cc3ccccc3)NC(=O)[C@H](CC(=O)O)NC(=O)CNC(=O)[C@H](CCCNC(=N)N)NC2=O)NC(=O)[C@@H](Cc2ccccc2)NC(=O)[C@H](CC(=O)O)NC(=O)CNC1=O [technetium-99m labelled]", "test system": "athymic nude mouse, female, U-87 MG xenograft, tumour", "conditions": "intravenous, 2.5 µCi, 60 min", "measurement": "tumour uptake", "result": "9.15 ± 2.13 %ID/g"}
{"Structure (SMILES)": "N=C(N)NCCC[C@@H]1NC(=O)[C@H](CCCCNC(=O)CNC(=O)CNC(=O)CNC(=O)CC[C@H](NC(=O)c2ccc(NN=Cc3ccccc3S(=O)(=O)O)nc2)C(=O)NCC(=O)NCC(=O)NCC(=O)NCCCC[C@@H]2NC(=O)[C@@H](Cc3ccccc3)NC(=O)[C@H](CC(=O)O)NC(=O)CNC(=O)[C@H](CCCNC(=N)N)NC2=O)NC(=O)[C@@H](Cc2ccccc2)NC(=O)[C@H](CC(=O)O)NC(=O)CNC1=O [technetium-99m labelled]", "test system": "athymic nu/nu mouse, female, MDA-MB-435 xenograft", "conditions": "intravenous, 30 min", "scale": "baseline: tumour over liver", "measurement": "tumour to tissue ratio", "result": "1.56 ± 0.37"}
{"Structure (SMILES)": "N=C(N)NCCC[C@@H]1NC(=O)[C@H](CCCCNC(=O)CCOCCOCCOCCOCCNC(=O)CC[C@H](NC(=O)CCOCCOCCOCCOCCNC(=O)CC[C@H](NC(=O)CN2CCN(CC(=O)O)CCN(CC(=O)O)CCN(CC(=O)O)CC2)C(=O)NCCOCCOCCOCCOCCC(=O)N[C@@H](CCC(=O)NCCOCCOCCOCCOCCC(=O)NCCCC[C@@H]2NC(=O)[C@@H](Cc3ccccc3)NC(=O)[C@H](CC(=O)O)NC(=O)CNC(=O)[C@H](CCCNC(=N)N)NC2=O)C(=O)NCCOCCOCCOCCOCCC(=O)NCCCC[C@@H]2NC(=O)[C@@H](Cc3ccccc3)NC(=O)[C@H](CC(=O)O)NC(=O)CNC(=O)[C@H](CCCNC(=N)N)NC2=O)C(=O)NCCOCCOCCOCCOCCC(=O)NCCCC[C@@H]2NC(=O)[C@@H](Cc3ccccc3)NC(=O)[C@H](CC(=O)O)NC(=O)CNC(=O)[C@H](CCCNC(=N)N)NC2=O)NC(=O)[C@@H](Cc2ccccc2)NC(=O)[C@H](CC(=O)O)NC(=O)CNC1=O [indium-111 labelled]", "test system": "female athymic nude mouse", "conditions": "intravenous, 3 µCi, 4 h, U-87 MG glioma xenograft", "scale": "baseline: tumour over muscle", "measurement": "tumour to muscle ratio", "result": "12.6 ± 3.7"}
{"Structure (SMILES)": "N=C(N)NCCC[C@@H]1NC(=O)[C@H](CCCCNC(=O)CCOCCOCCOCCOCCOCCOCCOCCOCCOCCOCCOCCOCCNC(=O)CCSC2CC(=O)N(CCC(=O)NCCCC[C@H](NC(=O)CCC(C(=O)O)N3CCN(C(CCC(=O)N[C@@H](CCCCNC(=O)CCN4C(=O)CC(SCCC(=O)NCCOCCOCCOCCOCCOCCOCCOCCOCCOCCOCCOCCOCCC(=O)NCCCC[C@@H]5NC(=O)[C@@H](Cc6ccc(O)cc6)NC(=O)[C@H](CC(=O)O)NC(=O)CNC(=O)[C@H](CCCNC(=N)N)NC5=O)C4=O)C(=O)N(CCCNC(=O)CN4CCN(CC(=O)O)CCN(CC(=O)O)CCN(CC(=O)O)CC4)CCCNC(=O)CN4CCN(CC(=O)O)CCN(CC(=O)O)CCN(CC(=O)O)CC4)C(=O)O)CCN(C(CCC(=O)N[C@@H](CCCCNC(=O)CCN4C(=O)CC(SCCC(=O)NCCOCCOCCOCCOCCOCCOCCOCCOCCOCCOCCOCCOCCC(=O)NCCCC[C@@H]5NC(=O)[C@@H](Cc6ccc(O)cc6)NC(=O)[C@H](CC(=O)O)NC(=O)CNC(=O)[C@H](CCCNC(=N)N)NC5=O)C4=O)C(=O)N(CCCNC(=O)CN4CCN(CC(=O)O)CCN(CC(=O)O)CCN(CC(=O)O)CC4)CCCNC(=O)CN4CCN(CC(=O)O)CCN(CC(=O)O)CCN(CC(=O)O)CC4)C(=O)O)CC3)C(=O)N(CCCNC(=O)CN3CCN(CC(=O)O)CCN(CC(=O)O)CCN(CC(=O)O)CC3)CCCNC(=O)CN3CCN(CC(=O)O)CCN(CC(=O)O)CCN(CC(=O)O)CC3)C2=O)NC(=O)[C@@H](Cc2ccc(O)cc2)NC(=O)[C@H](CC(=O)O)NC(=O)CNC1=O (stereo partly shown) [gallium-68 labelled]", "test": "PET", "test system": "SCID mouse, U-87 MG xenograft, tumour", "conditions": "intravenous, 6.0 mg, 1 h", "measurement": "tumour uptake", "result": "0.88 %ID/g"}
{"Structure (SMILES)": "CC(C)C[C@H](NC(=O)C[C@H](O)[C@H](CC(C)C)NC(=O)[C@H](Cc1c[nH]cn1)NC(=O)CNC(=O)[C@@H](NC(=O)[C@H](C)NC(=O)[C@H](Cc1c[nH]c2ccccc12)NC(=O)[C@H](CCC(N)=O)NC(=O)[C@@H](Cc1ccccc1)NC(=O)c1ccc(NC(=O)CNC(=O)CCC(C(=O)O)N2CCN(CC(=O)O)CCN(CC(=O)O)CC2)cc1)C(C)C)C(N)=O (stereo partly shown) [copper-64 labelled]", "test": "PET imaging", "test system": "mouse, PC-3 xenograft", "conditions": "intravenous, 1.5 h, 64Cu-labelled", "measurement": "tumour uptake", "result": "3 ± 0.76 %ID/g"}
{"Structure (SMILES)": "N=C(N)NCCC[C@@H]1NC(=O)[C@H](CCCCNC(=O)CCOCCOCCOCCOCCNC(=O)CN2CCN(CC(=O)O)CCN(CC(=O)O)CCN(CC(=O)O)CC2)NC(=O)[C@@H](Cc2ccccc2)NC(=O)[C@H](CC(=O)O)NC(=O)CNC1=O [indium-111 labelled]", "test system": "female athymic nude mouse", "conditions": "intravenous, 3 µCi, 4 h, U-87 MG glioma xenograft", "scale": "baseline: tumour over muscle", "measurement": "tumour to muscle ratio", "result": "9.5 ± 1.31"}
{"Structure (SMILES)": "N=C(N)NCCC[C@@H]1NC(=O)[C@H](CCCCNC(=O)c2ccc(CNC34CNCCNCC(NCc5ccc(C(=O)NCCCC[C@@H]6NC(=O)[C@@H](Cc7ccc(O)cc7)NC(=O)[C@H](CC(=O)O)NC(=O)CNC(=O)[C@H](CCCNC(=N)N)NC6=O)cc5)(CNCCNC3)CNCCNC4)cc2)NC(=O)[C@@H](Cc2ccc(O)cc2)NC(=O)[C@H](CC(=O)O)NC(=O)CNC1=O [copper-64 labelled]", "test": "microPET", "test system": "female athymic nude mouse, U-87 MG xenograft, U-87 MG tumour", "conditions": "intravenous, 1 h", "measurement": "tumour uptake", "result": "6.16 ± 0.88 %ID/g"}
{"Structure (SMILES)": "N=C(N)NCCC[C@@H]1NC(=O)[C@H](CCCCNC(=O)CC[C@H](NC(=O)CCOCCOCCOCCOCCNC(=O)CC[C@H](NC(=O)CN2CCN(CC(=O)O)CCN(CC(=O)O)CCN(CC(=O)O)CC2)C(=O)NCCOCCOCCOCCOCCC(=O)N[C@@H](CCC(=O)NCCCC[C@@H]2NC(=O)[C@@H](Cc3ccccc3)NC(=O)[C@H](CC(=O)O)NC(=O)CNC(=O)[C@H](CCCNC(=N)N)NC2=O)C(=O)NCCCC[C@@H]2NC(=O)[C@@H](Cc3ccccc3)NC(=O)[C@H](CC(=O)O)NC(=O)CNC(=O)[C@H](CCCNC(=N)N)NC2=O)C(=O)NCCCC[C@@H]2NC(=O)[C@@H](Cc3ccccc3)NC(=O)[C@H](CC(=O)O)NC(=O)CNC(=O)[C@H](CCCNC(=N)N)NC2=O)NC(=O)[C@@H](Cc2ccccc2)NC(=O)[C@H](CC(=O)O)NC(=O)CNC1=O [indium-111 labelled]", "test system": "female athymic nude mouse", "conditions": "intravenous, 3 µCi, 4 h, U-87 MG glioma xenograft", "scale": "baseline: tumour over muscle", "measurement": "tumour to muscle ratio", "result": "11.8 ± 7.36"}
{"Structure (SMILES)": "CC(C)C[C@H](NC(=O)[C@@H]1CCCN1C(=O)[C@H](CCCCN)NC(=O)[C@@H](N)CO)C(=O)N1CCC[C@H]1C(=O)N[C@@H](CCC(=O)O)C(=O)N[C@H](C(=O)N[C@H](C(=O)N[C@@H](CC(=O)O)C(=O)N[C@@H](CCC(=O)O)C(=O)N[C@@H](Cc1ccc(O)cc1)C(=O)N[C@@H](Cc1cn(CCOCCOCCOCCNC(=O)CCc2ccc(O)c(CN(CCN(CC(=O)O)Cc3cc(CCC(=O)NCCCC[C@H](NC(=O)N[C@@H](CCC(=O)O)C(=O)O)C(=O)O)ccc3O)CC(=O)O)c2)nn1)C(=O)O)[C@@H](C)O)C(C)C [gallium-68 labelled]", "test system": "NMRI nu/nu mouse, LNCaP xenograft", "conditions": "10 MBq, high molar activity", "scale": "baseline: tumour over muscle", "measurement": "tumour to muscle ratio", "result": 39.3}
{"note": "A few entries again:"}
{"Structure (SMILES)": "CC(C)C[C@H](NC(=O)C[C@H](O)[C@H](CC(C)C)NC(=O)[C@H](Cc1c[nH]cn1)NC(=O)CNC(=O)[C@@H](NC(=O)[C@H](C)NC(=O)[C@H](Cc1c[nH]c2ccccc12)NC(=O)[C@H](CCC(N)=O)NC(=O)[C@@H](Cc1ccccc1)NC(=O)c1ccc(NC(=O)CNC(=O)CCC(C(=O)O)N2CCN(CC(=O)O)CCN(CC(=O)O)CC2)cc1)C(C)C)C(N)=O (stereo partly shown) [copper-64 labelled]", "test": "PET imaging", "test system": "mouse, PC-3 xenograft", "conditions": "intravenous, 1.5 h, 64Cu-labelled", "measurement": "tumour uptake", "result": "3 ± 0.76 %ID/g"}
